Published values of several laboratories.
± marks the error that the study gave.

| Compound | assay | test system | setting | logD |
| --- | --- | --- | --- | --- |
| CC1(C)OC[C@H](C2CCCCC2)N[C@@H]1c1ccc(-c2ccccc2)cc1 | shake-flask, 1-octanol/buffer |  | pH 7.4 | > 4.7 |
| Cc1ccc(S(=N)C2CC2)cc1 (stereo not drawn) |  |  | pH 7.4 | -0.3 |
| CN1CCN(c2cccc(-c3ccc4ncnc(Nc5ccc([N+](=O)[O-])c(C(F)(F)F)c5)c4c3)c2)CC1 | shake flask | 1-octanol/phosphate buffer | pH 7.4 | > 3.9 |
| COc1ccc(NC(=O)c2ccco2)cc1NC(=O)c1cccnc1 |  | octanol/buffer | pH 7.4 | 1.67 |
| C[C@@H](NC(=O)c1ccccc1CCC(=O)NNC(=O)/C=C/C(=O)O)c1cccc2ccccc12 |  |  |  | -1.1 |
| NC[C@H](NC(=O)c1ccc(-c2ccc(Br)cc2)cc1)C(=O)NO |  | octanol/buffer | pH 7.4 | 3.8 |
| CCOC(=O)N1C[C@@H](c2cnn(C)c2)N[C@@H](c2ccc(-c3ccccc3)cc2)C1 | shake-flask, 1-octanol/buffer |  | pH 7.4 | > 4.7 |
| C[C@@H](NC(=O)c1ccccc1CCC(=O)NNC(=O)/C=C/C(=O)OCc1ccccc1)c1cccc2ccccc12 |  |  |  | 4.5 |
| COc1cc2[nH]c(C)c(-c3ccc(N(C)C)cc3)c(=O)c2cc1Cl | chromatographic |  | pH 7.4 | 2.6 |
| COc1ccc([C@@H]2Sc3ccccc3N(CCN(C)C)C(=O)[C@@H]2OC(C)=O)cc1 |  |  | pH 7.4 | 2.09 |
| Cc1cc(NC(=O)C2=C(O)c3ccccc3S(=O)(=O)N2C)no1 | miniaturised shake-flask | 1-octanol/water |  | 0.5 |
| O=C(NO)[C@H]1CSC(c2ccc(OC(F)(F)F)c(Cl)c2)=N1 |  | octanol/buffer | pH 7.4 | 3.15 |
| CN1C(C(=O)Nc2nnc(C(F)(F)F)s2)=C(O)c2ccccc2S1(=O)=O | miniaturised shake-flask | 1-octanol/water |  | 0.5 |
| COc1ccc(CC(NC(C)=O)c2ccc3cccnc3c2O)cc1OC (stereo not drawn) |  | octanol/buffer | pH 7.4 | 1.97 |
| COc1cc2[nH]c(C)c(-c3c(F)cccc3F)c(=O)c2cc1Cl | chromatographic |  | pH 7.4 | 2.1 |
| Cn1ccc(-c2ccc(-c3cc(C(=O)O)cc4cc(-c5ccc(C(F)(F)F)cc5)ccc34)cc2)n1 | HPLC retention |  | pH 7.4, chromatographic logD | 0.97 ± 0.01 |
| COc1cc2[nH]c(C)c(-c3ccc(OCc4ccccc4)cc3)c(=O)c2cc1Cl | chromatographic |  | pH 7.4 | 3.5 |
| Cn1c(COc2cccc3cccnc23)nnc1SCC(N)=O |  | octanol/buffer | pH 7.4 | 0.64 |
| CCOC(=O)N1C[C@@H](c2ccccc2O)N[C@@H](c2ccc(-c3ccccc3)cc2)C1 | shake-flask, 1-octanol/buffer |  | pH 7.4 | > 4.7 |
| O=c1[nH]c(=S)n(Cc2ccc(F)cc2)c2nc[nH]c12 |  |  |  | 2.1 |
| CCOC(=O)N1C[C@@H](c2ccc(Cl)cc2)N[C@@H](c2ccc(C(C)(C)C)cc2)C1 | shake-flask, 1-octanol/buffer |  | pH 7.4 | > 4.7 |
| COc1ccccc1CNC(=O)c1cc(S(=O)(=O)N2CCn3nccc3C2)c(C)n1C |  |  |  | 1.81 |
| Clc1ccc([C@@H]2COC[C@H](c3cccc(Br)c3)N2)cc1 | shake-flask, 1-octanol/buffer |  | pH 7.4 | > 4.1 |
| Cc1ccc(C(C)(C)c2ccc(NC(=O)CN(C)c3ccccc3N3CCCC3=O)cc2)cc1 | shake-flask |  |  | 5.1 |
| CC(CCc1ccccc1)NCC(O)c1ccc(O)c(C(N)=O)c1 (stereo not drawn) | miniaturised shake-flask | 1-octanol/water |  | 1.2 |
| O=C(O)c1cc(-c2ccc(-c3cc[nH]n3)cc2)c2ccc(-c3ccc(C(F)(F)F)cc3)cc2c1 | HPLC retention |  | pH 7.4, chromatographic logD | 0.65 ± 0.01 |

| Compound | assay | test system | setting | logD |
| --- | --- | --- | --- | --- |
| Cc1nc(C)c(-c2ccnc(Nc3ccc(N(C)C)c([N+](=O)[O-])c3)n2)s1 |  | octanol/buffer | 67 µM, pH 7.4 | 4.42 |
| COc1cc2[nH]c(C)c(-c3cc4ccccc4o3)c(=O)c2cc1Cl | chromatographic |  | pH 7.4 | 3.2 |
| COc1ccc2nc(-c3cc(N(C)C)ccn3)c(Nc3ccc(F)cc3)n2c1 |  |  | pH 7.4 | 3.1 |
| Clc1cc(Cl)cc([C@@H]2COC[C@]3(CC[C@H](c4ccccc4)CC3)N2)c1 | shake-flask, 1-octanol/buffer |  | pH 7.4 | > 4.7 |
| C=CC(=O)NC1CCN(c2ncc3ncnc(Nc4ccc(Oc5ccc6c(c5)ncn6C)c(C)c4)c3n2)CC1 |  |  | pH 7.4 | 4.7 |
| O=[N+]([O-])c1ccc(Nc2ncnc3ccc(-c4cccc(N5CCOCC5)c4)cc23)cc1C(F)(F)F | shake flask | 1-octanol/phosphate buffer | pH 7.4 | > 3.4 |
| CN1C(C(=O)Nc2cccc(F)n2)=C(O)c2ccccc2S1(=O)=O | miniaturised shake-flask | 1-octanol/water |  | -0.6 |
| COc1cc2[nH]c(C)c(-c3ccoc3)c(=O)c2cc1Cl | chromatographic |  | pH 7.4 | 2 |
| O=C(NC1CCCCC1)c1nccc(Cl)c1O | miniaturised shake-flask | 1-octanol/water |  | 2.4 |
| COc1cc2[nH]c(C)c(-c3ccc(C(C)=O)cc3)c(=O)c2cc1Cl | chromatographic |  | pH 7.4 | 2.3 |
| O=C(O)CNC(=O)c1c(O)cc(CCc2ccccc2)n2ncnc12 | miniaturised shake-flask | 1-octanol/water |  | 0 |
| CN(CCCCCCNC(=O)CNc1cccc2c1C(=O)N(C1CCC(=O)NC1=O)C2=O)Cc1cn(Cc2ccc(C(=O)NO)cc2)c2ccccc12 (stereo not drawn) | HPLC-based method |  | pH 7.4 | 1.3 |
| COc1cc2[nH]c(C)c(-c3ccc(O)cc3)c(=O)c2cc1Cl | chromatographic |  | pH 7.4 | 1.8 |
| CCOc1ccc2nc(SCC(=O)Nc3c(C)n(C)n(-c4ccccc4)c3=O)sc2c1 |  | octanol/buffer | pH 7.4 | 2.53 |
| O=C(O)CNC(=O)c1ncc(-c2cccc(F)c2)cc1O | miniaturised shake-flask | 1-octanol/water |  | -0.3 |
| CCOC(=O)/C=C/C(=O)NNC(=O)CCc1ccccc1C(=O)N[C@H](C)c1cccc2ccccc12 |  |  |  | 3.3 |
| CC(C(=O)O)n1nc(Cn2cc3cc(OCCF)c(Cl)cc3n2)c2ccccc2c1=O (racemic) |  |  | pH 7.4, room temperature | 0.11 ± 0.02 |
| CCn1c(SCC(=O)Nc2ccccc2OC)nnc1-c1c[nH]c2ccccc12 |  | octanol/buffer | pH 7.4 | 3.43 |
| COc1cc2[nH]c(C)c(-c3ccc(C)cc3C)c(=O)c2cc1Cl | chromatographic |  | pH 7.4 | 3 |
| Cc1ccc(Oc2ccc(NC(=O)CNc3ccccc3-n3cncn3)cc2)cc1 | shake-flask |  |  | 4.4 |
| O=C(Nc1ccc(F)cc1)N1CCNCC1COc1ccc2ccccc2c1 (stereo not drawn) | experimental partition |  | pH 7.4 | 3.23 ± 0.03 |
| CCOC(=O)N1C[C@@H](c2ccc(Cl)cc2)N[C@@H](c2ccc(C(=O)OC)cc2)C1 | shake-flask, 1-octanol/buffer |  | pH 7.4 | > 4.7 |
| CC(C)OC(=O)/C=C/C(=O)NNC(=O)CCc1ccccc1C(=O)N[C@H](C)c1cccc2ccccc12 |  |  |  | 3.7 |
| Cc1ccc([C@H]2N[C@@H](c3ccc(Cl)c(Cl)c3)CO[C@@H]2C)cc1 | shake-flask, 1-octanol/buffer |  | pH 7.4 | > 4.7 |
| c1cc(-c2ccc3ncnc(Nc4ncco4)c3c2)cc(N2CC3CCC(C2)O3)c1 | shake flask | 1-octanol/phosphate buffer | pH 7.4 | > 3.6 |

Some of these lines once more:
| Compound | assay | test system | setting | logD |
| --- | --- | --- | --- | --- |
| CC(CCc1ccccc1)NCC(O)c1ccc(O)c(C(N)=O)c1 (stereo not drawn) | miniaturised shake-flask | 1-octanol/water |  | 1.2 |
| O=C(O)c1cc(-c2ccc(-c3cc[nH]n3)cc2)c2ccc(-c3ccc(C(F)(F)F)cc3)cc2c1 | HPLC retention |  | pH 7.4, chromatographic logD | 0.65 ± 0.01 |
| Cc1nc(C)c(-c2ccnc(Nc3ccc(N(C)C)c([N+](=O)[O-])c3)n2)s1 |  | octanol/buffer | 67 µM, pH 7.4 | 4.42 |
| COc1cc2[nH]c(C)c(-c3cc4ccccc4o3)c(=O)c2cc1Cl | chromatographic |  | pH 7.4 | 3.2 |
| COc1ccc2nc(-c3cc(N(C)C)ccn3)c(Nc3ccc(F)cc3)n2c1 |  |  | pH 7.4 | 3.1 |
| Clc1cc(Cl)cc([C@@H]2COC[C@]3(CC[C@H](c4ccccc4)CC3)N2)c1 | shake-flask, 1-octanol/buffer |  | pH 7.4 | > 4.7 |
| C=CC(=O)NC1CCN(c2ncc3ncnc(Nc4ccc(Oc5ccc6c(c5)ncn6C)c(C)c4)c3n2)CC1 |  |  | pH 7.4 | 4.7 |
| O=[N+]([O-])c1ccc(Nc2ncnc3ccc(-c4cccc(N5CCOCC5)c4)cc23)cc1C(F)(F)F | shake flask | 1-octanol/phosphate buffer | pH 7.4 | > 3.4 |
